Assay results collected from several papers.
Each line is one published result; not all experiments were run side by side.
Target: Vascular endothelial growth factor receptor 2 (KDR, Homo sapiens, UniProt P35968)
UniProt P35968, sequence (whole entry, looked up): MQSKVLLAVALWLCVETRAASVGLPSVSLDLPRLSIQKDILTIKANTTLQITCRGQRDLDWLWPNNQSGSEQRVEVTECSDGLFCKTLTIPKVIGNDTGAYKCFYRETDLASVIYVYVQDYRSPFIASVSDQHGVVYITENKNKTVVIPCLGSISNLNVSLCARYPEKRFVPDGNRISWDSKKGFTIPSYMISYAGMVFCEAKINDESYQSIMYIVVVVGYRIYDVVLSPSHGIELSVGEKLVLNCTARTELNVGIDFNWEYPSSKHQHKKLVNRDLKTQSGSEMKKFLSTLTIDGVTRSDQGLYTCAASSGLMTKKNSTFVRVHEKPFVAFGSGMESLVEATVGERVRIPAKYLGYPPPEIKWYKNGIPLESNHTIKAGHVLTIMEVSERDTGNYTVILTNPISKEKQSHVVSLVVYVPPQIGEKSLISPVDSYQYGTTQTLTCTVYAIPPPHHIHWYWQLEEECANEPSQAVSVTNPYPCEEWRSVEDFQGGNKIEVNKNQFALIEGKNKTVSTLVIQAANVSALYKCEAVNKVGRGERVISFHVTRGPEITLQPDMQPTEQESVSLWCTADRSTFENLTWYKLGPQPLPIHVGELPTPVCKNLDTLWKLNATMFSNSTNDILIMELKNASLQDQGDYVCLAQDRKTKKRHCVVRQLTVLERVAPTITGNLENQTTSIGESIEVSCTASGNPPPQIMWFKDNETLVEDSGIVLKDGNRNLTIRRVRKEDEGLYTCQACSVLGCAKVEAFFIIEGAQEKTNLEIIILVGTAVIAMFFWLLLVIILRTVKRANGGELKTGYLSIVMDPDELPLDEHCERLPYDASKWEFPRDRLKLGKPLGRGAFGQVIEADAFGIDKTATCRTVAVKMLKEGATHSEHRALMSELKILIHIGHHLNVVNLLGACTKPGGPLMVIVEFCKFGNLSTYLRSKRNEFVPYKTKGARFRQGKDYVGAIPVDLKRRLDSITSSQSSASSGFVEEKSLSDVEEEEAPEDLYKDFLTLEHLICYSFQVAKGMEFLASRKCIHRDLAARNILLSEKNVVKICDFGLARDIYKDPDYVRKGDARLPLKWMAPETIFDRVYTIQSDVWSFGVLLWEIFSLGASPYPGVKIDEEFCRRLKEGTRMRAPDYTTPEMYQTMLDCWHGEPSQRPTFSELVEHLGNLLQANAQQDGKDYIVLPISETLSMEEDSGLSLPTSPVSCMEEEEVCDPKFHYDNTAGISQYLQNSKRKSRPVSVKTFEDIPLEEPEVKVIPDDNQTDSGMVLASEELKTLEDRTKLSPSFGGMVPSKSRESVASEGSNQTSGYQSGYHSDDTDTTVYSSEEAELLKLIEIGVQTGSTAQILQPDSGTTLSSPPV

The inhibition of CS(C)(=O)=Nc1ccc(-c2ccc(-c3nc4cc(O[C@@H]5CO[C@H]6[C@@H]5OC[C@H]6O)[nH]c4cc3F)cc2)cc1 is reported as 8% (enzyme activity, inhibitor; 10 µM).
With CC(C)[C@H]1NC(=O)C[C@H]2/C=C/CCSSC[C@@H](NC1=O)C(=O)N[C@H](Cc1cccc3ccccc13)C(=O)NCC(=O)O2 the inhibition was 0.275% (enzyme activity, inhibitor; 10 µM).
Nc1ccc(/C=C/C(=O)N2CCc3c(oc4c(-c5ccc(F)cc5)cc(-c5ccc(C(=O)N6CCC(F)(F)CC6)cn5)cc34)C2)cn1 gave a remaining binding of 94% (binding, competition with immobilised ligand; 1 µM).
For O=C1NC(=O)c2c1c1cc(F)c[n+]3c1c1c2c2cc(O)ccc2[n]1[Ru-4]312([N]=C=S)[S+]3CC[S+]1CC[S+]2CC3 (centres unmarked), the remaining activity was 27% (enzyme activity; 100 nM, human enzyme, added: 10 µM ATP; relative to: untreated).
The inhibition of N[C@H](C(=O)N1CCCC1)C1CCN(c2nccc3c(-c4ncc(Cl)cc4Cl)cccc23)CC1 is reported as 31% (cell-free assay; 10 µM).
The remaining binding of CCOC(=O)[C@@H]1Cc2c(cc([N+](=O)[O-])cc2[N+](=O)[O-])[C@H](O)[C@]12C(=O)Nc1ccc(Br)cc12 is reported as 100% (binding, competition with immobilised ligand; 0.1 µM).
The inhibition of C[C@H](NCc1ccc(-c2ccc(C(F)(F)F)cc2)cc1)C(N)=O is reported as 0% (cell-free assay, competition with immobilised ligand; 1 µM).
With C[C@@H]1COCCN1c1nc(NCc2cccnc2C(F)(F)F)c2cccnc2n1 the IC50 was over 100 µM (binding; CEREP panel).

Repeated from above:
The inhibition of CS(C)(=O)=Nc1ccc(-c2ccc(-c3nc4cc(O[C@@H]5CO[C@H]6[C@@H]5OC[C@H]6O)[nH]c4cc3F)cc2)cc1 is reported as 8% (enzyme activity, inhibitor; 10 µM).
